Measurements gathered from unrelated publications.
Protocols differ between the studies behind these lines.
Organism: Trypanosoma brucei

CCCCCC(=O)N[C@@H](Cc1ccccc1)C(=O)N[C@@H](CCCC)C(=O)N[C@@H](CC(C)C)C(=O)[C@@]1(C)CO1 has an EC50 of 1040 nM (parasite growth, SYBR Green; 72 h).
The IC90 of O=C1NC(=O)C2(N[C@@H]1Cc1ccccc1)C1CC3CC(C1)CC2C3 (stereo partly drawn) is reported as 57200 nM (parasite growth; pH 7.4, blood stage).
For Cc1cnc(CNC(=O)c2c(=O)c3ccc(N4CCCN(C)CC4)nc3n3c2sc2ccccc23)cn1, “downregulated G4-containing genes” read 7 genes (RNA-seq; Lister 427 bloodstream form; 2 x EC50, 4 h, overlap, with peaks, G4 ChIP-seq; reference: untreated).
O=C(N/N=C/c1ccc([N+](=O)[O-])s1)c1ccccc1I has an EC50 of 1470 nM (parasite growth, resazurin; 72 h).
With CNC(=O)c1c(F)cccc1Nc1nc(Nc2cc3c(cc2OC)CCN3C(=O)CN(C)C)nc2[nH]ccc12 the EC50 was 1980 nM (parasite growth).
CCCCCC(=O)N[C@@H](Cc1ccccc1)C(=O)N[C@@H](CCCC)C(=O)N[C@@H](Cc1ccccc1)C(=O)[C@@]1(C)CO1 has an EC50 of over 4000 nM (parasite growth, SYBR Green; 72 h).
For C[n+]1cc(NC(=O)c2ccc3ccc4ccc(C(=O)Nc5cc6ccccc6[n+](C)c5)nc4c3n2)cc2ccccc21, “unchanged G4-containing genes” read 703 genes (RNA-seq; Lister 427 bloodstream form; 2 × EC50, 4 h).
CCCCCC(=O)NC(CC(=O)N(CC)CC)C(=O)NC(Cc1ccc(F)cc1)C(=O)NC(Cc1ccc(F)cc1F)C(=O)C1(C)CO1 (stereo not drawn) gave an EC50 of 220 nM (parasite growth, SYBR Green; GAMBIENSE).
The IC50 of O=C(O)CN1C(=O)CNC2(C1=O)C1CC3CC(C1)CC2C3 (stereo not drawn) is reported as 469000 nM (parasite growth; pH 7.4, blood stage).
For CN(C)CCNC(=O)c1cccn2c(=O)c3cc4ccccc4cc3nc12, the unchanged genes was 16900 genes (RNA-seq; Lister 427 bloodstream form; 2 × EC50, 4 h; reference: untreated).
The EC50 of CCCCCC(=O)N[C@@H](Cc1ccc(N)cc1)C(=O)N[C@@H](CCCC)C(=O)N[C@@H](CC(C)C)C(=O)[C@@]1(C)CO1 is reported as 228 nM (parasite growth, SYBR Green; 72 h).
C[C@@H]1NC2(C(=O)N(CC(=O)O)C1=O)C1CC3CC(C1)CC2C3 (stereo partly drawn) has an IC50 of 203000 nM (parasite growth; pH 7.4, blood stage).
The GI50 of c1cc(-c2ccc3ncnc(Nc4ncco4)c3c2)cc(N2CCOCC2)c1 is reported as 420 nM (parasite growth, SYBR Green; 48 h).
CCCCCC(=O)N[C@@H](Cc1ccc(NC(=O)OC(C)(C)C)cc1)C(=O)N[C@@H](CCCC)C(=O)N[C@@H](Cc1ccccc1)C(=O)[C@@]1(C)CO1 has an EC50 of 2720 nM (parasite growth, SYBR Green; 72 h).
With O=C(O)CN1C(=O)C(Cc2ccccc2)NC2(C1=O)C1CC3CC(C1)CC2C3 (stereo not drawn) the IC90 was 208000 nM (parasite growth; pH 7.4, blood stage).
